Results collected from several papers.
Protocols differ between the studies behind these lines. ± marks the error that the study gave. No end group written: not given here.
YAP1 WW1 domain: Transcriptional coactivator YAP1, WW1 domain (YAP1, Homo sapiens, UniProt P46937)
KCNT1: Potassium channel subfamily T member 1 (KCNT1, Homo sapiens, UniProt Q5JUK3)
ERAP1 I681R: Endoplasmic reticulum aminopeptidase 1 (ERAP1, Homo sapiens, UniProt Q9NZ08, I681R)
CFTR del508-508: Cystic fibrosis transmembrane conductance regulator (CFTR, Homo sapiens, UniProt P13569, del508-508)
T1: DNA aptamer, truncated, engineered stem; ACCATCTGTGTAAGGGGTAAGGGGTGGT

O=C(Nc1ccccc1C(=O)Nc1ccccc1C(=O)NCc1ccco1)c1ccco1  efficacy (Relaxin receptor 1 (RXFP1, Homo sapiens, UniProt Q9HBX9); cAMP level, agonist, HTRF; HEK293 cells expressing RXFP1; baseline: forskolin 57.5 µM as 100%): 80%
Nc1ncnc2c1ncn2[C@@H]1O[C@H](COP(=O)(O)OP(=O)(O)OP(=O)(O)O)[C@@H](O)[C@H]1O  dissociation rate constant (ATP1A1 (Canis lupus familiaris, UniProt P50997); binding, ligand dissociation kinetics; dog enzyme; Na+ 200 mM, 4 °C, Et3N+ replacement, total monovalent cation 500 mM, nitrate, preparation B): 0.73 ± 0.07 s⁻¹
FC(F)(F)c1cc(Nc2nc(Cl)nc(Cl)n2)cc(C(F)(F)F)c1  HRP binding (CD209 antigen (CD209, Homo sapiens, UniProt Q9NNX6); activator, plate-based HRP; 500 µM, overnight, 4 °C or RT; baseline: DMSO control): ≥ 50%
Nc1ncnc2c1ncn2[C@@H]1O[C@H](COP(=O)(O)OP(=O)(O)O)[C@@H](O)[C@H]1O  Bmax (ATP1A1 (Sus scrofa, UniProt P05024); binding, radioligand binding; membrane-bound enzyme; together with: NaCl 19 mM): 1.17 ± 0.02 µM
CSCC[C@H](NC(=O)[C@@H]1CCCN1C(=O)[C@@H](NC(=O)[C@H](Cc1ccc(O)cc1)NC(=O)[C@H](C)NC(=O)[C@@H]1CCCN1C(=O)[C@@H]1CCCN1C(=O)[C@@H]1CCCN1C(=O)[C@H](CO)NC(=O)[C@H](Cc1c[nH]cn1)NC(=O)CN)[C@@H](C)O)C(=O)N[C@@H](CO)C(=O)O  TΔS (YAP1 WW1 domain; binding, ITC; pH 7.0, 25 °C, WW1 domain): 2.63 ± 0.25 kcal/mol
CCOc1ccccc1S(=O)(=O)N1CC(c2nc(-c3ccc(F)cc3)c[nH]2)C1  efficacy (KCNT1; Tl+ flux, activator; HEK293 expressing KCNT1; 30 µM; baseline: loxapine maximum response): 31%
IINFEKL  Vmax (ERAP1 I681R; L-AMC hydrolysis, activator; peptide; 100 µM, 5 min, pH 8.0, 27 °C, mutant I681R, together with: L-AMC varied from 0 µM): 359 ± 5 nmol/min/µg
CN(C)c1cccc(Nc2nc3c(s2)CCCc2nc(NC(=O)C(C)(C)C)sc2-3)c1  Vmax (CFTR del508-508; iodide influx, corrector, YFP halide quenching; FRT cells expressing YFP-H148Q/I152L; 16 to 20 h, 37 °C, genistein 50 µM, together with: forskolin 20 µM): 336 µM/s
N[C@@H](Cc1cnc[nH]1)C(=O)O  ΔTm (HARS1 (Homo sapiens, UniProt P12081, S356N); thermal stability, DSF): 8.3 °C
CC(C)C[C@H](NC(=O)[C@H](C)NC(=O)[C@@H](N)[C@@H](C)O)C(=O)N1CCC[C@H]1C(=O)N1CCC[C@H]1C(=O)N1CCC[C@H]1C(=O)N1CCC[C@H]1C(=O)N[C@@H](Cc1ccc(O)cc1)C(=O)N[C@@H](CCCNC(=N)N)C(=O)N[C@@H](Cc1c[nH]cn1)C(=O)N[C@@H](CCCNC(=N)N)C(=O)N[C@@H](CC(N)=O)C(=O)O  ΔG (YAP1 WW1 domain; binding, ITC; pH 7.0, 25 °C, WW1 domain): -5.93 ± 0.09 kcal/mol
COc1cccc(C(=O)N2CCN(c3nc4cc(C)cc(C)c4cc3C#N)CC2)c1  EC50 (CFTR del508-508; ΔF508-CFTR correction, corrector; FRT; up to 25 µM, 37 °C, together with: forskolin 20 µM + genistein 50 µM): inactive
CC(C)C[C@H](NC(=O)[C@@H](NC(=O)[C@@H](N)[C@@H](C)O)C(C)C)C(=O)N1CCC[C@H]1C(=O)N1CCC[C@H]1C(=O)N1CCC[C@H]1C(=O)N1CCC[C@H]1C(=O)N[C@@H](Cc1ccc(O)cc1)C(=O)N[C@@H](C)C(=O)N[C@@H](Cc1c[nH]cn1)C(=O)N[C@@H](CCCNC(=N)N)C(=O)N[C@@H](CC(N)=O)C(=O)O  ΔG (Transcriptional coactivator YAP1, WW2 domain (YAP1, Homo sapiens, UniProt P46937); binding, ITC; pH 7.0, 25 °C, WW2 domain): -5.49 ± 0.06 kcal/mol
IINFEKE  Hill coefficient (ERAP1 (Homo sapiens, UniProt Q9NZ08, L733R); substrate; peptide; pH 8.0, 27 °C, mutant L733R, together with: L-AMC, peptide activator 100 µM): 1.4
Cc1ccc(S(=O)(=O)N2CCC2=O)cc1  phosphopantetheine acylation (Erythronolide synthase EryA1, module 2 ACP, holo (eryA, Saccharopolyspora erythraea, UniProt Q03131); substrate, LC-MS of tryptic digest; 10 equivalents, 1 h, pH 7, room temperature): ~80%
CC(C)[C@H](NC(=O)[C@@H](N)[C@@H](C)O)C(=O)N[C@@H](C)C(=O)N1CCC[C@H]1C(=O)N1CCC[C@H]1C(=O)N1CCC[C@H]1C(=O)N1CCC[C@H]1C(=O)N[C@@H](Cc1ccc(O)cc1)C(=O)N[C@@H](CCCNC(=N)N)C(=O)N[C@@H](Cc1c[nH]cn1)C(=O)N[C@@H](CCCNC(=N)N)C(=O)N[C@@H](CC(N)=O)C(=O)O  ΔH (YAP1 WW1 domain; binding, ITC; pH 7.0, 25 °C, WW1 domain): -16.1 ± 0.64 kcal/mol
COC1=C(OC)C(=O)C(C/C=C(\C)CC/C=C(\C)CC/C=C(\C)CCC=C(C)C)=C(C)C1=O  log association constant (Prosaposin, Saposin B (PSAP, Homo sapiens, UniProt P07602); binding, tyrosine fluorescence quenching; pH 5.5, 25 °C, 40 µM saposin B, 50 mM phosphate): 5.1
KKKKETDV-OH (C-acid)  binding competition (Peripheral plasma membrane protein CASK, PDZ domain (CASK, Homo sapiens, UniProt O14936); PDZ binding to syndecan-2 peptide; 50 µM, 45 min, 4 °C): no effect
CCNc1ccccc1S(=O)(=O)N1CC(c2nc(-c3ccsc3)no2)C1  activity class (KCNT1; Tl+ flux, inhibitor; HEK293 expressing KCNT1; 30 µM): inactive
COc1ncc(C[n+]2csc(CCOP(=O)(O)OP(=O)(O)O)c2C)c(N)n1  enzyme activity (2-oxoglutarate dehydrogenase complex component E1, within OGDH complex (Homo sapiens, UniProt Q02218); NADH formation; 0.20 mM, OGDH complex): 10 ± 0.35 µmol/min/mg E1o
NS(=O)(=O)c1ccc(N2N=C(C(F)(F)F)C[C@H]2c2ccc(F)cc2F)cc1  IC20 (Prostaglandin G/H synthase 1 (Canis lupus familiaris, UniProt Q8HZR1); TXB2 formation, inhibitor; dog whole blood; 1 h, 37 °C, during clotting): 10.6 µM
CCOc1ccccc1S(=O)(=O)[C@H]1C[C@@H](c2nc(-c3ccc(F)cc3)no2)C1  activity class (KCNT1; Tl+ flux, inhibitor; HEK293 expressing KCNT1; 30 µM): inactive
O=S(=O)(O)CCS  binding (T1, DNA aptamer, truncated, engineered stem; electrochemical aptamer sensor; 1 mM): no binding
O=c1c(O)c(-c2ccc(O)c(O)c2)oc2cc(O)cc(O)c12  remaining activity (UGT1A6 (Homo sapiens, UniProt P19224); enzyme activity, inhibitor; 50 µM): 23.1%
O=S(=O)(Sc1cccc(Cl)c1)c1cccc(Cl)c1  inhibition (tubulin; colchicine binding, [3H]colchicine binding; 50 µM, 10 min, 37 °C, together with: [3H]colchicine 5.0 µM): 93 ± 1%
IKPAKRMKFKTVCYLLVQLMHCRKMFKA  koff1 (Calmodulin-1 (Calm1, Rattus norvegicus, UniProt P0DP29, D130A/D94A); Ca2+ dissociation, stopped-flow quin-2 fluorescence; peptide; 2 µM, pH 7.4, 22 °C, together with: Ca2+-calmodulin complex): > 500 s⁻¹
Cc1ccc(S(=O)(=O)OCC(=O)Nc2ccc(C(=O)O)c(O)c2)cc1  luminescence (Fibroblast growth factor 14/SCN8A, Nav1.6 C-terminal tail (Homo sapiens, UniProt Q92915+Q9UQD0); FGF14-Nav1.6 complex formation, luciferase complementation; HEK293 stably expressing both; 30 µM; baseline: DMSO): 115%
CC(C)C[C@H](NC(=O)[C@@H](NC(=O)[C@@H](N)[C@@H](C)O)C(C)C)C(=O)N1CCC[C@H]1C(=O)N1CCC[C@H]1C(=O)N1CCC[C@H]1C(=O)N1CCC[C@H]1C(=O)N[C@@H](Cc1ccc(O)cc1)C(=O)N[C@@H](CCCNC(=N)N)C(=O)N[C@@H](C)C(=O)N[C@@H](CCCNC(=N)N)C(=O)N[C@@H](CC(N)=O)C(=O)O  ΔG (YAP1 WW1 domain; binding, ITC; pH 7.0, 25 °C, WW1 domain): -6.6 ± 0.17 kcal/mol
Cc1cc(=O)oc2cc(NC(=O)[C@@H](N)CC(C)C)ccc12  Vmax (ERAP1 I681R; hydrolysis of compound, substrate; varied from 0 µM, 5 min, pH 8.0, 27 °C, mutant I681R, no peptide activator): 210 ± 8 nmol/min/µg
meso-zeaxanthin  koff (Retinol-binding protein 3 (RBP3, Bos taurus, UniProt P12661); SPR; pH 7.4, 25 °C): 0.09 ± 0.6 s⁻¹
O=S(=O)(Sc1ccccc1F)c1ccccc1F  inhibition (tubulin; colchicine binding, [3H]colchicine binding; 50 µM, 10 min, 37 °C, together with: [3H]colchicine 5.0 µM): 75 ± 5%
COc1ccc(Cl)cc1Nc1nc2c(s1)CCCc1nc(NC(=O)C(C)(C)C)sc1-2  Vmax (CFTR del508-508; iodide influx, corrector, YFP halide quenching; FRT cells expressing YFP-H148Q/I152L; 16 to 20 h, 37 °C, genistein 50 µM, together with: forskolin 20 µM): 336 µM/s
O=C(O)Cc1ccccc1Nc1c(Cl)cccc1Cl  current change (Degenerin mec-4 (mec-4, Caenorhabditis elegans, UniProt P24612, A713T); ion current, two-electrode voltage clamp; Xenopus oocytes coexpressing MEC-2; 30 µM, -85 mV; baseline: uninjected oocytes, positive inhibition, negative potentiation): -2.78 µA

For quick reference, copied from above:
Cc1ccc(S(=O)(=O)N2CCC2=O)cc1  phosphopantetheine acylation (Erythronolide synthase EryA1, module 2 ACP, holo (eryA, Saccharopolyspora erythraea, UniProt Q03131); substrate, LC-MS of tryptic digest; 10 equivalents, 1 h, pH 7, room temperature): ~80%
CCNc1ccccc1S(=O)(=O)N1CC(c2nc(-c3ccsc3)no2)C1  activity class (KCNT1; Tl+ flux, inhibitor; HEK293 expressing KCNT1; 30 µM): inactive
CN(C)c1cccc(Nc2nc3c(s2)CCCc2nc(NC(=O)C(C)(C)C)sc2-3)c1  Vmax (CFTR del508-508; iodide influx, corrector, YFP halide quenching; FRT cells expressing YFP-H148Q/I152L; 16 to 20 h, 37 °C, genistein 50 µM, together with: forskolin 20 µM): 336 µM/s
Nc1ncnc2c1ncn2[C@@H]1O[C@H](COP(=O)(O)OP(=O)(O)OP(=O)(O)O)[C@@H](O)[C@H]1O  dissociation rate constant (ATP1A1 (Canis lupus familiaris, UniProt P50997); binding, ligand dissociation kinetics; dog enzyme; Na+ 200 mM, 4 °C, Et3N+ replacement, total monovalent cation 500 mM, nitrate, preparation B): 0.73 ± 0.07 s⁻¹
